Measurements from different studies.
Parts stem from different laboratories: compare values within a part only. Changes are numbered by the printed parent chain.

Sample 1
Target: Centromere-binding protein 1, full length, His-tagged (CBF1, Saccharomyces cerevisiae, UniProt P17106, residues 1-351)
UniProt P17106, sequence (whole entry, looked up): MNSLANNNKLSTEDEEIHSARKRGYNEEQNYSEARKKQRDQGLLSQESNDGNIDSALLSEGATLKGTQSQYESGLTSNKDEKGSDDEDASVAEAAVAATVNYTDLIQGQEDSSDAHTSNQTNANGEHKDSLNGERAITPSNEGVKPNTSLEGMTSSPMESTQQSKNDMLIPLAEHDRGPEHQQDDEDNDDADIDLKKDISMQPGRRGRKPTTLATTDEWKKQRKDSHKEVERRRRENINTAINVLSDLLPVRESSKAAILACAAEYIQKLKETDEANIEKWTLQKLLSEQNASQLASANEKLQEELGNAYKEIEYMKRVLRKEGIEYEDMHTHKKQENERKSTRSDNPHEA
Technique: competition protein-binding microarray
Form: double-stranded DNA, one strand shown
Sample: in vitro
Concentration: 2 µM
Notes: whole 60-bp probe, lowest competitor level
With: Pho4 competitor, 0.05 µM
Reading: higher = stronger binding
All sequences stand within: … GTCTTGATTCGCTTGACGCTGCTG
Strand | fluorescence intensity
CTAACGAAGGTTTGATGGGTGGGTGACAAGCCAAGT | 84.6 a.u.
GAAACTCATAGAGATGACGTGCCAGTTGGTTACGCC | 64.1 a.u.
CAGTACATTGAAAAGCACGTGACGGAACACCAACTT | 6270 a.u.
AAATTACTAAGTTGATAAGTGGGTGACGCCGTATGA | 78.9 a.u.
CTTTCCCGATCTTGCAAAGTGGGTGTAGCACATTTG | 80.2 a.u.
GGTTCTTCGTCTTTGCACGTGGTCGAAGAGGAACCT | 2090 a.u.
GGATGTCTTGTTTAGCACGTGACGGAGAACTGTGGC | 7090 a.u.
CTAACGAAGGTTTTTCACGTGAATTACAAGCCAAGT | 888 a.u.

Sample 2
Target: UDP-N-acetylglucosamine--peptide N-acetylglucosaminyltransferase 110 kDa subunit (OGT, Homo sapiens, UniProt O15294)
Effect on: phage display binding
Technique: phage display panning NGS
Form: peptide
Baseline: OGT-panned over input library
Target sequence (O15294 1-1046): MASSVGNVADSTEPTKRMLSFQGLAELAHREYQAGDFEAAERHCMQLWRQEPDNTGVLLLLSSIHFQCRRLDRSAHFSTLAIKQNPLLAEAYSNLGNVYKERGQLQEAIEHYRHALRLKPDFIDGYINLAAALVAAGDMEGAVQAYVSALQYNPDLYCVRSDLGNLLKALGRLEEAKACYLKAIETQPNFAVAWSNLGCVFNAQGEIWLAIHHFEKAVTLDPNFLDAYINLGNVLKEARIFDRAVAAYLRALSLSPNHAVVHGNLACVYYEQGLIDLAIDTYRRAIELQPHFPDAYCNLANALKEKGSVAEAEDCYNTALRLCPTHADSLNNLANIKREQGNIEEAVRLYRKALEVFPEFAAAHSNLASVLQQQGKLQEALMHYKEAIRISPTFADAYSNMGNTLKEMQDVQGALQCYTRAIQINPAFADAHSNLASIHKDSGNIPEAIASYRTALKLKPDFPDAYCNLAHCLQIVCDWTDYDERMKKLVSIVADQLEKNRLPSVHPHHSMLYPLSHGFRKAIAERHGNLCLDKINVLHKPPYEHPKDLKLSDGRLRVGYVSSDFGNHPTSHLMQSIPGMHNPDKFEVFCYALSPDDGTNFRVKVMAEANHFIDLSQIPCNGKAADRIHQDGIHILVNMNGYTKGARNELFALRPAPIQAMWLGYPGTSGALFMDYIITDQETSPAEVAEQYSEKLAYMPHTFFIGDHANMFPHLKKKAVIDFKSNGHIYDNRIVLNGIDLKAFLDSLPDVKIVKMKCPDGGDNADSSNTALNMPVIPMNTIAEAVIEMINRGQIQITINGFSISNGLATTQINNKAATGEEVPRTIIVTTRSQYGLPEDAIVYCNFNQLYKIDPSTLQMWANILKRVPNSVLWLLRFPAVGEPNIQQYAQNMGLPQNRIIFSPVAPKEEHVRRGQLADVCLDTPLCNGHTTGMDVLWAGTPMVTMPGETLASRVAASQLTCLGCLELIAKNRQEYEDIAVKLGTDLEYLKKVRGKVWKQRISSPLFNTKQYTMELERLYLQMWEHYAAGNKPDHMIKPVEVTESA
Sequence | log2 fold enrichment
DHDHLWQRLHDGHTS | 2.81
YQAVPRFHVEHTHHD | 3.19
SYIPGRVFPPQYQIT | 1.72
VQQQFWPMYEIEYDK | 4.21
AFVPPWAPMYQIVMG | 3.08
HYRTDHFKPDHHIHT | 3.63
SMAWHHPHGYHWPQA | 2.32
QDLEQHMFMHHHDKH | 2.61
TVWPHHSPHHDYDT | 2.91
TWRVPHLPPRYHEEV | 2.71
QQGFAPQYQILIEWE | 3.27
VGYHGTPYHKHGAHI | 2.71
WPHTMHAAKHDFHF | 2.64
HDSNWWTDHTWKHH | 2.28
SDDLYAPQYQIFFNA | 3.06
GMYHHHERTWNQYQH | 3.22
VDYRPAYPIDWAPWK | 2.55
WSAQPNLYPVYQIIV | 3.56
HGTHTAGAAPHILHH | 3.05
RHDPMSFQPVYQIKY | 6.1
TYLHHGDVVDMTSHV | 3.12
MRTEHIYPPVYTITY | 2.72
HIDKHFKHEQYQHDH | 3.15
VANMHHHVDHTAHGS | 3.38
DWHTDHWQSDHVHVH | 2.23

Sample 3
Target: RING finger protein unkempt homolog, zinc fingers 1-6, GST-SBP tag (UNK, Homo sapiens, UniProt Q9C0B0, residues 30-357)
UniProt Q9C0B0, sequence (30-357, looked up): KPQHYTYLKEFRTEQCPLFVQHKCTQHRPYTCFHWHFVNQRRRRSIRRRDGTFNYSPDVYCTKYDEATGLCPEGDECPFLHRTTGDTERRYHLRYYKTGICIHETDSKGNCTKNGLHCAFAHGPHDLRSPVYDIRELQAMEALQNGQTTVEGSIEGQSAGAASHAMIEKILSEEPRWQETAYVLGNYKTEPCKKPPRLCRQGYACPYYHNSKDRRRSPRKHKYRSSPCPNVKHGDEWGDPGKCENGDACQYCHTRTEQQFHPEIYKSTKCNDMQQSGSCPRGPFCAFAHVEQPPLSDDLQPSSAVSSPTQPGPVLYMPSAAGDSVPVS
Technique: RNA Bind-n-Seq
Form: RNA
Sample: in vitro
Concentration: not given
Notes: RNA with constant flanks, human and mouse sites, ends assumed
Baseline: input RNA pool
Reading: higher = stronger binding
All sequences stand within: GGGAGUUCUACAGUCCGACGAUC … CAACAGAGGAUUGAGCAUCA
Strand | bound/input enrichment [ratio]
GAUCAGACCAGUAAGCCUGAUGAAACUGGUAAAAGUAGUGUGCUGACUGUAUCAAAUGUAUAUAGUAGUAAAUCAAGCAUCAAGGCUACUGUGGUCUCUUCUCCUAAAGCAAAAAGUACA | 0.275
AGUCUUGCCGCAUCUUGGCAAGUUGCAGAGAUGGUGGAGCUAGAAAAAAAAAAAAAAAAGCCCUUUUCAGUUUGUGCACUGUGUAUGGUCCGUGUAGAUUGAUGCAGAUUUUCUGAAAUG | 0.573
CAUGCACACAAGUCCCCCUACUGCUGCCCGGAGUGUGGGGUCCUCUGCCGCUCUGCCUACUUCCAGACCCAUGUAAAGGAGAAUUGCCUGCACUAUGCCCGCAAGGUGGGCUACAGGUGC | 0.188
ACUAAAAUGUAGAUGACUUAACUGCCUCCUCCUUCGUCUGAAAAAUGCCAAUAUUCAAUCAUCAUGCAGCAUUAUAACAAGCCUUAUAAGUCCUAAAGCAUUAAGUUGCACUUUUUUGAG | 0.189
GUAAUCAGCAGAGACAUUGAUACUGCUGCCAAAUUCAUUGGUGCAGGUGCUGCAACAGUAGGAGUUGCUGGUUCUGGUGCUGGUAUUGGAACAGUCUUUGGCAGUCUUAUCAUUGGUUAU | 0.215
AUCGUCAAUGAUGAUCAGUCCUUUUAUGCUGAUAUUUACAUGGAAGAUGGCUUAAUAAAACAAAUUGGAGACAAUCUGAUUGUUCCUGGAGGAGUGAAGACCAUUGAAGCCAAUGGGAAG | 0.245
GAUACAAAAAACAAGGAUGGAGUUCUGGUGGAUGAAUUUGGAUUGCCACAGAUCCCUGCUUCAUAGAUUUGCAUCAUUCAAGCAUAUCUUGUAAAACAAACACAUAUUAUGGGACUAGGA | 0.421
AAGACAAAACUGGACACUCUAGCUACUGGUCAUCUUUUCCAGGAAGUGAGAUGCAUGAAACUAGUGCAGCAUCCUAACAUCGUCCGCCUUUAUGAAGUUAUUGACACCCAGACCAAACUA | 0.187

Sample 4
Target: inorganic phosphate, free oxyanion
Technique: microfluidic competitive inhibition
Sample: in vitro, cell-free expressed
Concentration: not given
Notes: derived from inhibition constants, unchanged parent 615000 nM
Reading: lower = stronger binding
Parent: PafA, mature enzyme, eGFP fusion (Elizabethkingia meningoseptica, UniProt Q9KJX5); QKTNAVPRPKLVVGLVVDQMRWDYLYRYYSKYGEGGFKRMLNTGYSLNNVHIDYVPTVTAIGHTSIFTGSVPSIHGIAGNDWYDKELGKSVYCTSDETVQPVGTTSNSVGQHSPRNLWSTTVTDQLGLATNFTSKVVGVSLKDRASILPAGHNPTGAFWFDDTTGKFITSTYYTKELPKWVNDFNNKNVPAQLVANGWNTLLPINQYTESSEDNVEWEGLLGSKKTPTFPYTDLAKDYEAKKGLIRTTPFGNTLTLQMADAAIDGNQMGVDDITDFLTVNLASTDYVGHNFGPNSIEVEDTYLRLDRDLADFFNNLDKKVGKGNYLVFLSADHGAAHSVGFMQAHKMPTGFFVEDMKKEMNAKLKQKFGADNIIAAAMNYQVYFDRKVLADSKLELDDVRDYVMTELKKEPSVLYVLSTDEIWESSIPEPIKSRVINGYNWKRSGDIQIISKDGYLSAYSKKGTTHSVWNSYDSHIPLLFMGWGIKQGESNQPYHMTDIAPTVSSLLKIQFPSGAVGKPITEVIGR
Variant | phosphate dissociation constant [µM]
Q192G | 556
Q366G | 451
I427G | 345
Y472V | 600
I61G | 67.9
A191G | 605
T284G | 427
H112V | 847
G525A | 563
N290V | 474
W82V | 764
D237V | 507
G454V | 426
L254V | 646
R115V | 698
F328G | 581
S73G | 400
G14V | 437
F276G | 427
A335G | 580
K432V | 504
K187V | 635
Y92V | 4560
H495G | 522
I245G | 299

A few entries again (sample 4):
Variant | phosphate dissociation constant [µM]
F328G | 581
S73G | 400
G14V | 437
F276G | 427
A335G | 580
K432V | 504
K187V | 635
Y92V | 4560
H495G | 522
